Measurements of several laboratories.
Each numbered part is a random draw from the data of one study; scales do not carry over between parts. Several values in a cell are separate wells, animals, samples, runs or records.

Sample 1 — read-out: ligand displacement; concentration: 10 µM
Target: Muscarinic acetylcholine receptor M1 (CHRM1, Homo sapiens, UniProt P11229)
Sequence of UniProt P11229 (whole entry, looked up): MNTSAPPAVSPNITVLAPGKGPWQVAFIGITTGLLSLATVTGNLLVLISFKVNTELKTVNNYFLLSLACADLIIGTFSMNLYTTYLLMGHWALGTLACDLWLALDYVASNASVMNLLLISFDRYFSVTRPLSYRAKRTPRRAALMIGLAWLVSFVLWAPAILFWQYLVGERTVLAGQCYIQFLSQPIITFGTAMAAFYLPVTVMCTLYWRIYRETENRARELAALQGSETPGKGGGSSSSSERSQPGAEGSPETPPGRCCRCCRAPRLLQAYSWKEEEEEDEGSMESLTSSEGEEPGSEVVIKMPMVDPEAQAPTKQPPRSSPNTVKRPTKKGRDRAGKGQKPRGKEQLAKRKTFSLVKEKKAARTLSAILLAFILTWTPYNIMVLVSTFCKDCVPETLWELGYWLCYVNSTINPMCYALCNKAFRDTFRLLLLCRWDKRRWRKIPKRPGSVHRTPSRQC
SMILES	inhibition
Cc1ccc(-c2cnc([C@@]3(O)CC[C@H](C(=O)O)C(C)(C)C3)s2)cc1Nc1cccc(C(F)(F)F)n1	-6.43%
Cc1cc(Nc2nccc(C)n2)cc(-c2cnc([C@@]3(O)CC[C@H](C(=O)O)C(C)(C)C3)s2)c1	-13.7%
COc1cccc(NC(=O)c2nc3scc(CN(C)Cc4ccccc4)c3c(=O)[nH]2)c1	-8.97%
c1ccc(C2CCN(c3cnc4c(N5CCOCC5)nccn34)CC2)cc1	23.7%
COc1cc(-c2cn(C3CCc4c(F)cccc4N(CC(F)(F)F)C3=O)nn2)ccc1-n1cnc(C)c1 (stereo not shown)	8.88%
CCOc1ccc(S(=O)(=O)Nc2ccc(Cl)cc2C#Cc2cnc(C(=O)O)cc2OC)c2ncccc12	16.3%

Sample 2 — read-out: peptide-MHC binding; form: peptide; concentration: concentration not given
Target: HLA class I histocompatibility antigen, C alpha chain, allele C*04:01 (Homo sapiens, UniProt P10321)
Sequence	binding
MTYSHHACR	inactive
RRRKGWIPL	inactive
FETMVFPAV	inactive
MSPDNALIY	inactive
SYGCPTNPF	inactive
SMFERDFHF	inactive
RRHWGGNVL	inactive
ILMARYMSK	inactive

Sample 3 — read-out: enzyme activity; action: inhibitor; technique: radiometric; concentration: 0.5 µM
Target: Leukocyte tyrosine kinase receptor (LTK, Homo sapiens, UniProt P29376)
Sequence of UniProt P29376 (whole entry, looked up): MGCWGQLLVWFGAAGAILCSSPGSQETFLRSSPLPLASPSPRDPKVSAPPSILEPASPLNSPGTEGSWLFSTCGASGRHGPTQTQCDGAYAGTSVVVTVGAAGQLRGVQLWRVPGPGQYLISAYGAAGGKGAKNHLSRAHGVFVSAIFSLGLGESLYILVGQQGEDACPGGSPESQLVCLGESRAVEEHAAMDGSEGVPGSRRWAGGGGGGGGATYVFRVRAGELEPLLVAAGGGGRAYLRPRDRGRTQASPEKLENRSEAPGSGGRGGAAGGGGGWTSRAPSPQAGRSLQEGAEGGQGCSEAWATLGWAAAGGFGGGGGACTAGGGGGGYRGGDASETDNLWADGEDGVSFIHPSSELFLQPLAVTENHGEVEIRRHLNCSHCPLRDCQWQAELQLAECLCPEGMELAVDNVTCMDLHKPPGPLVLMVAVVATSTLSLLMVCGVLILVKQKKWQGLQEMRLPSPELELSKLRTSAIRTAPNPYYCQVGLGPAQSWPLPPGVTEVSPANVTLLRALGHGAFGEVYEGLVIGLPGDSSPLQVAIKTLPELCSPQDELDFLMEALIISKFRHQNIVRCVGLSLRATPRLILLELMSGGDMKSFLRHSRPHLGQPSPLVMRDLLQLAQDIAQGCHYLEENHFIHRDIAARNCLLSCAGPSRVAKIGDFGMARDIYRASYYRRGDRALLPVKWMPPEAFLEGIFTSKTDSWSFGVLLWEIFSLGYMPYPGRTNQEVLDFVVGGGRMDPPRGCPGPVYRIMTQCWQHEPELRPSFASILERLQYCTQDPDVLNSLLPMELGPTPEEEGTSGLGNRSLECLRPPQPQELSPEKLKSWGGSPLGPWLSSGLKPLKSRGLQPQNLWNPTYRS
SMILES	remaining activity [%]
O=C(Nc1ccc(Cl)cc1)c1ccccc1NCc1ccncc1	104
O=c1cc(N2CCOCC2)oc2c1ccc1ccccc12	101
C[S+]([O-])c1ccc(-c2nc(-c3ccncc3)c(-c3ccc(F)cc3)[nH]2)cc1 (stereo not shown)	101
COc1cc2ncnc(Nc3ccc(OCc4ccccc4)cc3)c2cc1OC	98.6
CS(=O)(=O)CCNCc1ccc(-c2ccc3ncnc(Nc4ccc(OCc5cccc(F)c5)c(Cl)c4)c3c2)o1	100

Sample 4 — SMILES: Cc1ccc(O)cc1Nc1ccnc2cc(-c3ccccn3)ccc12; cell line: L929; technique: CCK-8
test	conditions	viability
	3.125 µM	45.8% and 49.3% and 48.7% and 35.8%
necroptosis protection	15 µM, with: TNF-α-induced	53%
necroptosis protection	0.062 µM, with: TNF-α-induced	16.2%
necroptosis protection	2.5 µM, with: TNF-α-induced	60.5%
necroptosis protection	0.625 µM, with: TNF-α-induced	58%
necroptosis protection	0.00229 µM, with: TNF-α-induced	13.5%
necroptosis protection	0.556 µM, with: TNF-α-induced	41.9%
necroptosis protection	0.185 µM, with: TNF-α-induced	24%
necroptosis protection	0.021 µM, with: TNF-α-induced	16%

A few entries again (sample 3):
SMILES	remaining activity [%]
CS(=O)(=O)CCNCc1ccc(-c2ccc3ncnc(Nc4ccc(OCc5cccc(F)c5)c(Cl)c4)c3c2)o1	100
O=c1cc(N2CCOCC2)oc2c1ccc1ccccc12	101
O=C(Nc1ccc(Cl)cc1)c1ccccc1NCc1ccncc1	104
